Published values gathered from unrelated publications.
Numbered parts are unrelated; each lists some results of a single study.

Set 1
Target: Interferon regulatory factor 7, full length, phosphomimetic (IRF7, Homo sapiens, UniProt Q92985, residues 1-503, S471D/S472D/S475D/S476D/S477D/S483D/S484D/S487D)
Method: protein-binding microarray
Form: double-stranded DNA, one strand shown
Sample: in vitro
Concentration: 2200 nM top
Notes: 60-bp whole probe
Together with: salmon DNA 0.4 mg/ml
Reference: random background probes
Reading: higher = stronger binding
Shared flanks, not repeated: GCCTAGCAC … GTGCTAGGTCTTGATTCGCTTGACGCTGCTG
Residues (chain): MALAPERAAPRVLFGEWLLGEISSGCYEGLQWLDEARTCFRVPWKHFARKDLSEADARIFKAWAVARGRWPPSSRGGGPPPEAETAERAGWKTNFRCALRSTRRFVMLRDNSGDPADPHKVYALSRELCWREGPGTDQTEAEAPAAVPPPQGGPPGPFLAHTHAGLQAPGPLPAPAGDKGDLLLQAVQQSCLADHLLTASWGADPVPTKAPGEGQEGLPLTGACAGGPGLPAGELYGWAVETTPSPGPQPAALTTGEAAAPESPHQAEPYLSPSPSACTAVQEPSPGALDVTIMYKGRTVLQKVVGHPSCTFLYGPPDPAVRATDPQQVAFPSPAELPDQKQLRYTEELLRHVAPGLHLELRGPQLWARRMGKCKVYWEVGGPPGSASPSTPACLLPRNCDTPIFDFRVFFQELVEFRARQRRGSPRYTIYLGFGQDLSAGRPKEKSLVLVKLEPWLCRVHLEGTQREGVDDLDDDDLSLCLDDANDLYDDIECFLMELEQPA
`GACGGTCTCGGTCTCGGTAC`: “fitted relative affinity” 0.261 z-score.
`GTCGATTTCAGTTCCGAGAC`: “fitted relative affinity” 2.74 z-score.
For `TTAGAACTGAGTTACGATTA`, “fitted relative affinity” read -0.447 z-score.
Under “fitted relative affinity”, `TCATGATTACATATATGACT` is recorded as 0.596 z-score.
`TCAGGGCTACCTCTCTTACT` — result for “fitted relative affinity”: -0.378 z-score.

Single results of other studies
KAT6A both winged helices, GST fusion: Histone acetyltransferase KAT6A, both winged helices, GST fusion (KAT6A, Homo sapiens, UniProt Q92794, residues 1-181)
UNK zinc fingers 1-6, SBP tag: RING finger protein unkempt homolog, zinc fingers 1-6, SBP tag (UNK, Homo sapiens, UniProt Q9C0B0, residues 30-357)
Chain of UniProt Q9C0B0 (30-357, looked up): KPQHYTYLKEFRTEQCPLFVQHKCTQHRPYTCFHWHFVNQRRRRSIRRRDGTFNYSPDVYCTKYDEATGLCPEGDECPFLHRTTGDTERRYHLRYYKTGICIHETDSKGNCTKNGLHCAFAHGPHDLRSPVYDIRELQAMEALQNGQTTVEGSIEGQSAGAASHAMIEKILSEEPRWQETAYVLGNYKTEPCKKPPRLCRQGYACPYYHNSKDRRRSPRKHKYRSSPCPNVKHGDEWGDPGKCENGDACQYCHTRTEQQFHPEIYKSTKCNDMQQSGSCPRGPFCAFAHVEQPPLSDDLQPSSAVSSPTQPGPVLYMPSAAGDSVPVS
`AAACCCGC` gave an E-score of 0.231 (KAT6A both winged helices, GST fusion; protein binding microarray; double-stranded DNA, one strand shown, in vitro; not given, 8-mer, flanks averaged, mean of 2 arrays, mostly near background; reference: not given, higher = stronger binding).
For `PhoQ, residues 284 288 289 292 302 303 TTCLQL`, the fold induction was 15.5 (PhoP, residues 12 14 15 18 19 NMSSL (Escherichia coli, UniProt P23836); Sort-seq, refers to: YFP reporter; E. coli; PhoQ-PhoP variant library, together with: 10 µM Mg2+; reference: high Mg2+ state, higher = stronger signaling).
For `AAGTAGTC`, the E-score was -0.0573 (KAT6A both winged helices, GST fusion; protein binding microarray; double-stranded DNA, one strand shown, in vitro; not given, 8-mer, flanks averaged, mean of 2 arrays, mostly near background; reference: not given, higher = stronger binding).
With `GGGAGUUCUACAGUCCGACGAUCUCUAGGUGGGGGUAACCAUUAACAUAUUUAAAUAAAGAAAAGAAGUGCUGAAAAUCAUGUUAGUCCUAAGUUUAGUUGGAGAAUUUACAUAAGCCUCUUUUAGGUAAUUCUAAAAUUGAACAACAGAGGAUUGAGCAUCA` the bound/input enrichment was 1.03 ratio (UNK zinc fingers 1-6, SBP tag; RNA Bind-n-Seq; RNA, in vitro; 100 nM, RNA with constant flanks, vertebrate orthologous sites, ends assumed; reference: input RNA pool, higher = stronger binding).
With `CTAGCGCC` the E-score was 0.24 (KAT6A both winged helices, GST fusion; protein binding microarray; double-stranded DNA, one strand shown, in vitro; not given, 8-mer, flanks averaged, mean of 2 arrays, mostly near background; reference: not given, higher = stronger binding).
For `GGGAGUUCUACAGUCCGACGAUCCUAUUGUUAAGCACUGUGUUCCAGACCGUGUCUGACUUUAGUGUAACCUAGGAGAUUUUAUAGUUUUAUUUUAAUGAAAUCCUGCUUGACGCAGAACAGCGGGGAGAGCAGUGUCUUCUACAACAGAGGAUUGAGCAUCA`, the bound/input enrichment was 2.04 ratio (UNK zinc fingers 1-6, SBP tag; RNA Bind-n-Seq; RNA, in vitro; 100 nM, RNA with constant flanks, vertebrate orthologous sites, ends assumed; reference: input RNA pool, higher = stronger binding).

Repeated from above (set 1):
`GTCGATTTCAGTTCCGAGAC`: “fitted relative affinity” 2.74 z-score.
Under “fitted relative affinity”, `TCATGATTACATATATGACT` is recorded as 0.596 z-score.
